{"data": "Measurements collected from several papers", "note": "Numbered parts are unrelated; each lists some results of a single study. Values joined by “and” are separate records of one study, mostly repeats; a detail may differ.", "chain of UniProt P18089 (whole entry, looked up)": "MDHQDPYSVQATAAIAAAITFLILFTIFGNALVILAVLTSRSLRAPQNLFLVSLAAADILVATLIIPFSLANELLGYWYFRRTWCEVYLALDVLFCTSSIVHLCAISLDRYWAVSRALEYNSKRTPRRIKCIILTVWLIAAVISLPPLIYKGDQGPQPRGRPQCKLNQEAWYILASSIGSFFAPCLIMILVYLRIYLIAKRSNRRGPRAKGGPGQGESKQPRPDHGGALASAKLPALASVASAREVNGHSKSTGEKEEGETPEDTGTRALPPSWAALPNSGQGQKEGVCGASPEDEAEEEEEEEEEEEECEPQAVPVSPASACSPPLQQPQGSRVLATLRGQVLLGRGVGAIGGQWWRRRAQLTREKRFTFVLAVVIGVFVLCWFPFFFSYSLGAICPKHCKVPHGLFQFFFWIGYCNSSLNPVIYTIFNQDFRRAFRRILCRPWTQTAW", "chain of UniProt P21917 (whole entry, looked up)": "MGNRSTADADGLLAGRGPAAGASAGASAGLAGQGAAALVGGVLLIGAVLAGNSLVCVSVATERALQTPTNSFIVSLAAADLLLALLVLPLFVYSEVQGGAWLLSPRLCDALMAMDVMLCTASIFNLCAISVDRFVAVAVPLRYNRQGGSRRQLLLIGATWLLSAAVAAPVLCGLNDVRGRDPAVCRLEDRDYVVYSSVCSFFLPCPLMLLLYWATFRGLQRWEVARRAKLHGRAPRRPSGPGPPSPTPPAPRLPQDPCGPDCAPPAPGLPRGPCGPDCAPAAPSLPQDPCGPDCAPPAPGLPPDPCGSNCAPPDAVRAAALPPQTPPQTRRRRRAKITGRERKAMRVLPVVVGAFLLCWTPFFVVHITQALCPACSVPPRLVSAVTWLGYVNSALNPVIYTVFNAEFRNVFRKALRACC", "chain of UniProt P25100 (whole entry, looked up)": "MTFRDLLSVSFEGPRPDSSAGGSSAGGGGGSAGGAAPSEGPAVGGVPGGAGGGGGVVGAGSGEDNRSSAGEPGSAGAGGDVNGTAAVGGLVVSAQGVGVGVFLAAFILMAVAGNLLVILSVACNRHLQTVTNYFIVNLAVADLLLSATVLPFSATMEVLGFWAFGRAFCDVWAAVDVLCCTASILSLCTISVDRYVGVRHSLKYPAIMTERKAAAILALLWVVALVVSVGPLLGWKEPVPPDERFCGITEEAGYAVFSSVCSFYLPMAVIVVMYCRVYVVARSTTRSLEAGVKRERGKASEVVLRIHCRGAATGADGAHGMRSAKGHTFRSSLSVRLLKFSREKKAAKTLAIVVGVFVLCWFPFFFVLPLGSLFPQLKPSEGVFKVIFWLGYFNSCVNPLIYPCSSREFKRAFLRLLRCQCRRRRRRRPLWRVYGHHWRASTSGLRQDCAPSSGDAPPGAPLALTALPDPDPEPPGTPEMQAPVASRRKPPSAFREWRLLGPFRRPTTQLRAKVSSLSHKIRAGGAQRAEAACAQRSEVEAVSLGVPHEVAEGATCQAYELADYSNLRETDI", "chain of UniProt P18825 (whole entry, looked up)": "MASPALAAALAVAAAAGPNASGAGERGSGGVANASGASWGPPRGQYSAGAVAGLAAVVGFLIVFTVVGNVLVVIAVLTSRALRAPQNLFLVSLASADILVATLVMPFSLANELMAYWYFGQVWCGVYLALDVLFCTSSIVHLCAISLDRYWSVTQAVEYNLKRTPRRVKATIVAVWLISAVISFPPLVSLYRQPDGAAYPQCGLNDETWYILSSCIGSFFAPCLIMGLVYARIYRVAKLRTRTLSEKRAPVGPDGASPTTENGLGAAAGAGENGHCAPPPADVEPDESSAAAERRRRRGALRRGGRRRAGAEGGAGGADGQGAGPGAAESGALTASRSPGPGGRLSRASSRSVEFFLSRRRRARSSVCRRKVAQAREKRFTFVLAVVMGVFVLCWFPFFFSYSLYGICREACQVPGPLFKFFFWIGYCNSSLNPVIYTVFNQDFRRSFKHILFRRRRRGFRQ", "chain of UniProt P35348 (whole entry, looked up)": "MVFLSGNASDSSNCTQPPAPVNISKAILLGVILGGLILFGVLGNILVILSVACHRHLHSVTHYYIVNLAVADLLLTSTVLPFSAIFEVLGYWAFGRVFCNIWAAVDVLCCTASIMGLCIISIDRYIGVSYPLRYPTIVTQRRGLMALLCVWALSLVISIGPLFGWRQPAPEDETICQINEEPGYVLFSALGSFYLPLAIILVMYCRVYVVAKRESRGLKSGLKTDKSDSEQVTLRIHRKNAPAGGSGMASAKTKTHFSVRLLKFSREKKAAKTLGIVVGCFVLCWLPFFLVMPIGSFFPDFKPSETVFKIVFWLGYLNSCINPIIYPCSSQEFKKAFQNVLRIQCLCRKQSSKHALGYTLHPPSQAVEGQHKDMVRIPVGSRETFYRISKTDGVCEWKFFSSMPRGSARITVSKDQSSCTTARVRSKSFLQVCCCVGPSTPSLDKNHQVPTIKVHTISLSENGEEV", "chain of UniProt P08913 (whole entry, looked up)": "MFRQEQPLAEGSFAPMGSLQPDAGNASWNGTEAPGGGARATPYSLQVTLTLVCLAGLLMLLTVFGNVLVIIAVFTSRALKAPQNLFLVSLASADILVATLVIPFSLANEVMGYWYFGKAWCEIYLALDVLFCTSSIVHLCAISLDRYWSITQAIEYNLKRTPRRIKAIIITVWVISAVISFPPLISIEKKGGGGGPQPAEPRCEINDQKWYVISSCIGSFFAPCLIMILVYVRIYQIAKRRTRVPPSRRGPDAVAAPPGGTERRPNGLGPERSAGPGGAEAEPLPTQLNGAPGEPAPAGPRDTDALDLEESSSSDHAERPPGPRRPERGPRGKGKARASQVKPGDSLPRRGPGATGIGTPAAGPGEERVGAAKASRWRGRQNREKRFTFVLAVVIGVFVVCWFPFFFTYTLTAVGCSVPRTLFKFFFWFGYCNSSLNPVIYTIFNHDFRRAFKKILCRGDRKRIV", "chain of UniProt P35462 (whole entry, looked up)": "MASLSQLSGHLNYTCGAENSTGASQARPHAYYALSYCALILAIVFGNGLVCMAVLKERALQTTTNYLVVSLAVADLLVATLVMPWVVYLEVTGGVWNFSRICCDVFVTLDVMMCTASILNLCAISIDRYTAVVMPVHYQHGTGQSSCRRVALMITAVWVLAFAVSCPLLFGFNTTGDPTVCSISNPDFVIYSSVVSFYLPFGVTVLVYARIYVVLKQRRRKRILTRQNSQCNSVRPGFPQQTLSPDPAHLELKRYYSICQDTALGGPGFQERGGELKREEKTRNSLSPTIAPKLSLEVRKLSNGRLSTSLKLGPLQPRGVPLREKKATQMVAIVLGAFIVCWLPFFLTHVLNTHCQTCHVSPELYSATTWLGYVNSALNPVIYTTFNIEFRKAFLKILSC", "chain of UniProt Q5BJF2 (whole entry, looked up)": "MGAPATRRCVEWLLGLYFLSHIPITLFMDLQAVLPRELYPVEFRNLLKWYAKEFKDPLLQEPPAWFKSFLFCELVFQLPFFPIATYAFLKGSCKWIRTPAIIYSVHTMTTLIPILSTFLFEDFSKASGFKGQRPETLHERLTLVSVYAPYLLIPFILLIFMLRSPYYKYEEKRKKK", "chain of UniProt P08173 (whole entry, looked up)": "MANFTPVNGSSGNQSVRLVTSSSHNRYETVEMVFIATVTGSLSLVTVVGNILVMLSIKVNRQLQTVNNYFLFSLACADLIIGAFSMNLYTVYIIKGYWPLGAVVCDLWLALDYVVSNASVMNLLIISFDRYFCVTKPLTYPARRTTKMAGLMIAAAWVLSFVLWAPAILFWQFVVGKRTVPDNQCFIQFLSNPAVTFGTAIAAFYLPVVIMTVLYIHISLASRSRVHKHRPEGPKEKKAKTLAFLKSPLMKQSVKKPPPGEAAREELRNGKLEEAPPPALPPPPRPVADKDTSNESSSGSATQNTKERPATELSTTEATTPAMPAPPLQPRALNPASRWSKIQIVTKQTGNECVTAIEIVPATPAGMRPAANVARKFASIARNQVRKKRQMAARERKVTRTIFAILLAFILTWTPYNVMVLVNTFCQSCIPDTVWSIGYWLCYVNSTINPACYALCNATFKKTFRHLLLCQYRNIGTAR", "chain of UniProt P35368 (whole entry, looked up)": "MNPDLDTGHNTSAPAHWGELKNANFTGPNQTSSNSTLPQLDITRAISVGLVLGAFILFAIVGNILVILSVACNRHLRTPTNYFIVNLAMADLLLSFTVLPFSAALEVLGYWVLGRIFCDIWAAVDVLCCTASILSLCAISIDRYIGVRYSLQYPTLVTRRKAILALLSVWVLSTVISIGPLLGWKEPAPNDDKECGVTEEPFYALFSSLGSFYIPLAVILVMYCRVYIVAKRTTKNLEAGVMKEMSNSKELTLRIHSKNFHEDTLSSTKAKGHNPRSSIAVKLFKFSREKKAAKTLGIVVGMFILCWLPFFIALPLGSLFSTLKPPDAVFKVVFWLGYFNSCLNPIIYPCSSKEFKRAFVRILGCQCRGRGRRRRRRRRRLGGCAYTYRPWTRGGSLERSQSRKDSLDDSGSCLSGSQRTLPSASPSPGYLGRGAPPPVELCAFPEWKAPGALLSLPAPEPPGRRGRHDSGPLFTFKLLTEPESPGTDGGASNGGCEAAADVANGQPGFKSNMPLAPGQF", "chain of UniProt P08912 (whole entry, looked up)": "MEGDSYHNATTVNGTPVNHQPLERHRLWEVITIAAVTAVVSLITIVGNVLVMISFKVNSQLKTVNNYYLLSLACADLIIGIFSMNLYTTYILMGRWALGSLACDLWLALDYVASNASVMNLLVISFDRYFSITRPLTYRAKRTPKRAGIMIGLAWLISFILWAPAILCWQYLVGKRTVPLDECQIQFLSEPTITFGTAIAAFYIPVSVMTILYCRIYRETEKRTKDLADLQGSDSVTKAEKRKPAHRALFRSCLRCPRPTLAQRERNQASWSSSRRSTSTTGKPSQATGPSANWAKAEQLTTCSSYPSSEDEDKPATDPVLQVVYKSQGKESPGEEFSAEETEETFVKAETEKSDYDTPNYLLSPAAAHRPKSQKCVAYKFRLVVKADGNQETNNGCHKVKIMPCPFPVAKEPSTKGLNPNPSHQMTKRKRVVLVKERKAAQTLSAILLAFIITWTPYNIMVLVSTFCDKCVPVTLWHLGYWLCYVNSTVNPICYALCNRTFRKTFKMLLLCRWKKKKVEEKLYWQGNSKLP"}
{"data": "Set 1", "SMILES": "O=C(NC1CCNCC1)c1[nH]ncc1NC(=O)c1c(Cl)cccc1Cl", "method": "trypan blue exclusion", "time": "48 h", "baseline": "untreated"}
{"cell line": "HuT78", "setting": "0.01 µM", "viability": "107%"}
{"cell line": "HuT78", "setting": "1 µM", "viability": "48.3%"}
{"cell line": "HuT78", "setting": "10 µM", "viability": "30.2%"}
{"cell line": "HH", "setting": "0.05 µM", "viability": "103%"}
{"cell line": "HH", "setting": "0.001 µM", "viability": "100%"}
{"cell line": "HuT78", "setting": "0.05 µM", "viability": "105%"}
{"data": "Set 2", "SMILES": "O=C(c1ccc(F)cc1)N1CC(COc2ccc(Br)cc2)(C(=O)O)C1", "read-out": "cell-free assay", "concentration": "10 µM"}
{"target": "Histamine H1 receptor (HRH1, Homo sapiens, UniProt P35367)", "inhibition": "-4.38%"}
{"target": "Alpha-1B adrenergic receptor (ADRA1B, Homo sapiens, UniProt P35368)", "inhibition": "-14.6%"}
{"target": "Muscarinic acetylcholine receptor M4 (CHRM4, Homo sapiens, UniProt P08173)", "inhibition": "-16%"}
{"target": "Histamine H4 receptor (HRH4, Homo sapiens, UniProt Q9H3N8)", "inhibition": "-26.2%"}
{"target": "Alpha-1A adrenergic receptor (ADRA1A, Homo sapiens, UniProt P35348)", "inhibition": "-4.09%"}
{"target": "Beta-1 adrenergic receptor (ADRB1, Homo sapiens, UniProt P08588)", "inhibition": "-6.66%"}
{"target": "5-hydroxytryptamine receptor 7 (HTR7, Homo sapiens, UniProt P34969)", "inhibition": "-12%"}
{"target": "Alpha-2C adrenergic receptor (ADRA2C, Homo sapiens, UniProt P18825)", "inhibition": "11.3%"}
{"target": "Sigma intracellular receptor 2 (TMEM97, Homo sapiens, UniProt Q5BJF2)", "inhibition": "-12.2%"}
{"target": "D(3) dopamine receptor (DRD3, Homo sapiens, UniProt P35462)", "inhibition": "3.89%"}
{"target": "Alpha-2B adrenergic receptor (ADRA2B, Homo sapiens, UniProt P18089)", "inhibition": "12.1%"}
{"target": "Alpha-2A adrenergic receptor (ADRA2A, Homo sapiens, UniProt P08913)", "inhibition": "14.2%"}
{"target": "D(4) dopamine receptor (DRD4, Homo sapiens, UniProt P21917)", "inhibition": "-7.87%"}
{"target": "Beta-3 adrenergic receptor (ADRB3, Homo sapiens, UniProt P13945)", "inhibition": "-13.3%"}
{"target": "Muscarinic acetylcholine receptor M5 (CHRM5, Homo sapiens, UniProt P08912)", "inhibition": "-0.33%"}
{"target": "Alpha-1D adrenergic receptor (ADRA1D, Homo sapiens, UniProt P25100)", "inhibition": "5%"}
{"data": "Set 3", "target": "Serine/threonine-protein kinase Nek11 (NEK11, Homo sapiens, UniProt Q8NG66)", "read-out": "enzyme activity", "action": "inhibitor", "concentration": "0.5 µM", "baseline": "control", "Residues (Q8NG66 1-645)": "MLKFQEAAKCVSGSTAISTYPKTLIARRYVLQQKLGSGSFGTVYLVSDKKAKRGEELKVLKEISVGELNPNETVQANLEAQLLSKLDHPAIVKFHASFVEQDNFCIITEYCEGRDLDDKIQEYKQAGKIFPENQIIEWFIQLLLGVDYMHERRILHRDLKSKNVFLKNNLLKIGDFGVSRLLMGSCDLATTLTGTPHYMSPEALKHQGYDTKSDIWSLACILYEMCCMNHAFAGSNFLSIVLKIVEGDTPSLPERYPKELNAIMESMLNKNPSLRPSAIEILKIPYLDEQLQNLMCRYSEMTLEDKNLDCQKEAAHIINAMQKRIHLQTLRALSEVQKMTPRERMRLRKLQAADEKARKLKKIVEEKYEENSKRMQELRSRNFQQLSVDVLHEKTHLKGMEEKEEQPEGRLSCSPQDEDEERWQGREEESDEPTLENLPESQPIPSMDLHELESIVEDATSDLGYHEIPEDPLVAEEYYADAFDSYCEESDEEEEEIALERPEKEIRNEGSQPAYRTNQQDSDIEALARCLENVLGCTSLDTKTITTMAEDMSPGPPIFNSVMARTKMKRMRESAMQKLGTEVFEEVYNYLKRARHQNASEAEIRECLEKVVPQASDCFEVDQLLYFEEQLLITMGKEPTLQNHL"}
{"Compound": "O=S(=O)(c1cccc2cnccc12)N1CCCNCC1", "remaining activity": "114%"}
{"Compound": "Nc1[nH]nc2nc3ccccc3nc12", "remaining activity": "110%"}
{"Compound": "CNC(=O)c1cc(Oc2ccc(NC(=O)Nc3ccc(Cl)c(C(F)(F)F)c3)cc2)ccn1", "remaining activity": "105%"}
{"Compound": "Cc1nc(-c2ccccc2)c(-c2ccncc2)o1", "remaining activity": "76.7%"}
{"Compound": "COc1ccc(CNC(=O)Nc2ncc([N+](=O)[O-])s2)cc1", "remaining activity": "104%"}
{"Compound": "O=c1c2ccccc2[nH]c(=S)n1CCN1CCC(=C(c2ccc(F)cc2)c2ccc(F)cc2)CC1", "remaining activity": "94%"}
{"Compound": "Cc1ccc(NC(=O)c2ccc(CN3CCN(C)CC3)cc2)cc1Nc1nc(-c2cccnc2)cs1", "remaining activity": "95.1%"}
{"Compound": "CCOC(=O)c1c(C)[nH]c(/C=C2\\C(=O)Nc3ccccc32)c1C", "remaining activity": "96.6%"}
{"Compound": "O=C1NC(=O)C(c2cn(CCCO)c3ncccc23)=C1c1cnccn1", "remaining activity": "108%"}
{"Compound": "N#CC(C#N)=C(N)/C(C#N)=C/c1ccc(O)cc1", "remaining activity": "97.2%"}
{"Compound": "O=C(CCCc1ccc(-c2ccccc2F)cc1)Nc1ccc(O)cc1", "remaining activity": "100%"}
{"Compound": "Oc1ccc(-c2nc(-c3ccncc3)c(-c3ccc(F)cc3)[nH]2)cc1", "remaining activity": "80.6%"}
{"Compound": "Cn1sc(=O)n(Cc2ccccc2)c1=O", "remaining activity": "102%"}
{"Compound": "O=C1NC(=O)C(c2cn(CCCn3ccnc3)c3ccccc23)=C1Nc1ccccc1", "remaining activity": "75.6%"}
{"data": "Set 4", "Compound": "COc1cc(C(=O)OCCCN2CCCN(CCCOC(=O)c3cc(OC)c(OC)c(OC)c3)CC2)cc(OC)c1OC", "route": "subcutaneous"}
{"assay": "von Frey, 0.4 g filament", "system": "mouse, CFA inflammatory pain", "setting": "10 mg/kg, 24 h post-dose, third injection, day 5", "paw withdrawal frequency": "60% and 70% and 80% and 90%"}
{"assay": "von Frey test", "system": "mouse, STZ diabetic neuropathy", "setting": "30 mg/kg, second of three doses, 0 h", "paw withdrawal frequency": "0.17 fraction of stimuli and 0.07 fraction of stimuli and 0.23 fraction of stimuli and 0.32 fraction of stimuli and 0.05 fraction of stimuli"}
{"assay": "von Frey, 0.4 g filament", "system": "mouse, CFA inflammatory pain", "setting": "10 mg/kg, after CFA, before dosing", "paw withdrawal frequency": "90% and 70% and 60% and 80%"}
